{"data": "Measured values pooled from the literature", "note": "± marks the error that the study gave."}
{"SMILES": "CC(C)N1CCn2cc(C(=O)NCc3ccc(F)cc3F)c(=O)c(O)c2C1=O", "tested on": "HIV-1", "test": "viral replication, single-round vector infection", "system": "IN E138K/Q148K", "endpoint": "EC50", "result": "62.5 ± 8 nM"}
{"SMILES": "CCCCCCCCCCCCCCCC(=O)N[C@@H](CCC(=O)NCCOCCOCCC(=O)NCCOCCOCCC(=O)NCCCC[C@H](NC(=O)[C@H](CC(=O)O)NC(=O)[C@H](CC(C)C)NC(=O)[C@H](Cc1ccc(O)cc1)NC(=O)[C@H](CCCCN)NC(=O)[C@H](CO)NC(=O)[C@H](Cc1ccc(O)cc1)NC(=O)[C@H](CC(=O)O)NC(=O)[C@H](CO)NC(=O)[C@@H](NC(=O)[C@H](Cc1ccccc1)NC(=O)[C@@H](NC(=O)CNC(=O)[C@H](CCC(N)=O)NC(=O)[C@@H](CO)NC(=O)[C@@H](N)Cc1c[nH]cn1)[C@@H](C)O)[C@@H](C)O)C(=O)N[C@@H](CCCNC(=N)N)C(=O)N[C@@H](CCCNC(=N)N)C(=O)N[C@@H](C)C(=O)N[C@@H](CCC(N)=O)C(=O)N[C@@H](CC(=O)O)C(=O)N[C@@H](Cc1ccccc1)C(=O)N[C@H](C(=O)N[C@@H](CCC(N)=O)C(=O)N[C@@H](Cc1c[nH]c2ccccc12)C(=O)N[C@@H](CC(C)C)C(=O)N[C@@H](CC(C)C)C(=O)N[C@@H](CC(N)=O)C(=O)N[C@H](C(=O)NCC(=O)NCC(=O)N1CCC[C@H]1C(=O)N[C@@H](CO)C(=O)N[C@@H](CO)C(=O)NCC(=O)N[C@@H](C)C(=O)N1CCC[C@H]1C(=O)N1CCC[C@H]1C(=O)N1CCC[C@H]1C(=O)N[C@@H](CO)C(N)=O)[C@@H](C)O)C(C)C)C(=O)O", "system": "C57BL/6J mouse CCl4 model, liver", "conditions": "dose not given", "endpoint": "α-SMA staining", "result": "decreased"}
{"SMILES": "CC[C@@H](C)[C@@H](NC(=O)[C@@H](CCCCN)NC(=O)[C@@H](CCCCN)NC(=O)[C@@H](CC(C)C)NC(=O)[C@@H](Cc1c[nH]c2ccccc12)NC(=O)CN)C(=O)NCC(=O)N[C@H](CCCCN)C(=O)N[C@H](CCCCN)C(=O)N[C@@H](C(=O)N[C@H](CCC(=O)O)C(=O)N[C@H](CCCNC(=N)N)C(=O)N[C@@H](C(=O)NCC(=O)N[C@H](CCC(N)=O)C(=O)N[C@H](Cc1c[nH]cn1)C(=O)N[C@@H](C(=O)N[C@H](CCCNC(=N)N)C(=O)N[C@H](CC(=O)O)C(=O)N[C@H](C)C(=O)N[C@@H](C(=O)N[C@@H](C(=O)N[C@H](CCC(N)=O)C(=O)N[C@@H](C(=O)N[C@@H](C(=O)NCC(=O)N[C@@H](C(=O)N[C@H](C)C(=O)N[C@H](CCC(N)=O)C(=O)N[C@H](CCC(N)=O)C(=O)N[C@H](C)C(=O)N[C@H](C)C(=O)N[C@H](CC(N)=O)C(=O)N[C@@H](C(=O)N[C@H](C)C(=O)N[C@H](C)C(=O)N[C@@H](C(=O)N[C@H](CC(C)C)C(=O)N[C@H](CCCCN)C(N)=O)[C@H](C)O)C(C)C)C(C)C)[C@H](C)CC)[C@H](C)O)[C@H](C)CC)[C@H](C)O)[C@H](C)O)C(C)C)[C@H](C)CC", "tested on": "Klebsiella pneumoniae", "system": "isolate RKI 19/16, CAMHB", "endpoint": "MIC", "result": "> 1020 µg/mL"}
{"SMILES": "Cc1cn(C2CCC(OC(C(=O)O)P(=O)(O)O)C2)c(=O)[nH]c1=O (racemic)", "tested on": "HIV-1 reverse transcriptase F61A", "test": "enzyme activity, inhibitor", "conditions": "together with: poly(rA)·oligo(dT), [3H]dTTP", "scale": "relative to: mutant over wild type", "endpoint": "fold resistance", "result": "31 fold"}
{"SMILES": "COCCCN1CCn2cc(C(=O)NCc3ccc(F)cc3F)c(=O)c(O)c2C1=O", "tested on": "human immunodeficiency virus 1", "test": "single-round vector infection", "system": "integrase S230N", "endpoint": "EC50", "result": "6.6 ± 0.3 nM"}
{"SMILES": "Cc1cc(/C=C/C#N)cc(C)c1Nc1nc(Nc2ccc(C#N)cc2)ncc1N", "tested on": "HIV-1", "test": "viral replication, single-round infection", "system": "RT mutant E138K/M184I", "endpoint": "EC50", "result": "2.9 ± 0.6 nM"}
{"SMILES": "CC(C)=CCc1c(O)ccc(-c2coc3cc(O)cc(O)c3c2=O)c1O", "test": "viral replication", "system": "SARS-CoV-2 trVLP system", "conditions": "100 µM", "endpoint": "inhibition", "result": "> 90%"}
{"SMILES": "CC(C)CC(C(=O)N1CC2(CC1C#N)C(=O)Nc1ccccc12)N(C)C(=O)c1cc2c(F)cc(F)c(F)c2[nH]1 (stereo not drawn)", "tested on": "pangolin coronavirus", "test": "viral replication", "conditions": "0.3333 µM", "endpoint": "inhibition", "result": "100%"}
{"SMILES": "N=C(N)NCc1cn([C@@H]2[C@@H](OCCn3cc(COCCOCCOCCn4cc(-c5cc(OCCOCCO)c(C#Cc6cc(OCCOCCO)c(C#Cc7cc(OCCOCCO)c(-c8cn(CCOCCOCCOCc9cn(CCO[C@H]%10O[C@H](CO)[C@@H](O)[C@H](O)[C@@H]%10n%10cc(CNC(=N)N)nn%10)nn9)nn8)cc7OCCOCCO)cc6OCCOCCO)cc5OCCOCCO)nn4)nn3)O[C@H](CO)[C@@H](O)[C@@H]2O)nn1", "tested on": "L-SIGN (human)", "test": "viral trans-infection", "system": "Jurkat expressing L-SIGN, Severe acute respiratory syndrome coronavirus 2", "conditions": "rVSV-luc pseudovirus", "endpoint": "IC50", "result": "65 nM"}
{"SMILES": "CC(C)CC(C)n1ccn2cc(C(=O)NCc3ccc(F)cc3F)c(=O)c(O)c2c1=O (stereo not drawn)", "tested on": "human immunodeficiency virus 1", "test": "single-round vector infection", "system": "integrase S230N", "endpoint": "EC50", "result": "7.7 ± 0.3 nM"}
{"SMILES": "Nc1ccn(C2CCC(OC(C(=O)O)P(=O)(O)O)C2)c(=O)n1 (racemic)", "tested on": "HIV-1 reverse transcriptase K65R", "test": "enzyme activity, inhibitor", "conditions": "together with: poly(rI)·oligo(dC), [3H]dCTP", "scale": "relative to: mutant over wild type", "endpoint": "fold resistance", "result": "1.6 fold"}
{"SMILES": "COCCCCCCN1CCn2cc(C(=O)NCc3ccc(F)cc3F)c(=O)c(O)c2C1=O", "tested on": "human immunodeficiency virus 1", "test": "single-round vector infection", "system": "integrase R263K", "endpoint": "EC50", "result": "9.4 ± 1.4 nM"}
{"SMILES": "Cc1cc(/C=C/C#N)cc(C)c1-n1cnc2cnc(Nc3ccc(C#N)cc3)nc21", "tested on": "HIV-1", "test": "viral replication, single-round infection", "system": "RT mutant K101P/V179I", "endpoint": "EC50", "result": "16.6 ± 0.5 nM"}
{"SMILES": "CC(C)n1ccn2cc(C(=O)NCc3ccc(F)cc3F)c(=O)c(O)c2c1=O", "tested on": "human immunodeficiency virus 1", "test": "single-round vector infection", "system": "integrase G118R", "endpoint": "EC50", "result": "26.7 ± 3.2 nM"}
{"SMILES": "CN1CCN(C(=O)N[C@@H](Cc2ccccc2)C(=O)N[C@H](/C=C/S(=O)(=O)c2ccccc2)CCc2ccccc2)CC1", "tested on": "cathepsin L human", "test": "SARS-CoV-2 spike cleavage at S1' site, inhibitor, SDS-PAGE", "conditions": "2.5 to 5 µM, 1 h, pH 5.5", "endpoint": "inhibition", "result": "inhibited"}
{"note": "Some of these lines once more:"}
{"SMILES": "COCCCCCCN1CCn2cc(C(=O)NCc3ccc(F)cc3F)c(=O)c(O)c2C1=O", "tested on": "human immunodeficiency virus 1", "test": "single-round vector infection", "system": "integrase R263K", "endpoint": "EC50", "result": "9.4 ± 1.4 nM"}
